Experimental data of several laboratories.
“And” joins repeats or separate records; there may be more than shown. ± gives the spread as reported. Values after ≈ are worked out from the molar mass of the structure shown.

| Structure (SMILES) | organism | test | test system | conditions | how to read | measurement | value |
| --- | --- | --- | --- | --- | --- | --- | --- |
| Cc1cc(C(=O)Nc2nc3cccc(C)c3n2[C@H]2CCCCN(C(=O)/C=C/CN(C)C)C2)ccn1 | Trypanosoma brucei | cell growth, Alamar Blue | 2T1 overexpressing Tb927.10.1070 | – | baseline: parental 2T1 | EC50 fold shift | 0.97 fold and 0.84 fold |
| CCn1cnc2c(Oc3ccc(/C=C/C(=O)c4ccc(NS(=O)(=O)c5ccccc5C)cc4)cc3)ncnc21 | Tobacco mosaic virus | curative activity | plant in vivo | – | – | EC50 | 471.5 ± 1.4 µg/mL (≈ 874 µM) |
| CCOC(=O)C1(Cc2ccccc2)Oc2cc(OC)ccc2N(Cc2ccccc2)C1=O (stereo not shown) | Eclipta prostrata | fresh weight, greenhouse postemergence | – | postemergence, 150 g ai/ha, 21 days | – | inhibition | 57.3 ± 2.34% |
| COc1ccc(C2=[N+]([O-])c3ccccc3N3CC(C)(C)CN=C23)cc1 | Parabacteroides distasonis and Bacteroides spp. | bacterial growth | – | – | – | MIC50 | 0.25 µg/mL (≈ 0.745 µM) |
| CC[C@H](C)[C@H](NC(=O)[C@H](CCCCN)NC(=O)[C@H](CCCCN)NC(=O)[C@H](Cc1ccccc1)NC(=O)[C@H](Cc1ccccc1)NC(=O)[C@H](CCCCN)NC(=O)[C@H](CCCCN)NC(=O)[C@H](Cc1ccccc1)NC(=O)[C@H](CCCNC(=N)N)NC(=O)[C@@H](N)CCCCN)C(=O)N[C@@H](CCCCN)C(=O)N[C@@H](CCCCN)C(=O)N[C@@H](CO)C(=O)N[C@H](C(=O)N[C@@H](CCCCN)C(=O)N[C@@H](CCCCN)C(=O)N[C@@H](CCCNC(=N)N)C(=O)N[C@H](C(=O)N[C@@H](CCCCN)C(=O)N[C@@H](CCCCN)C(=O)N[C@@H](CC(C)C)C(=O)N[C@@H](Cc1ccccc1)C(=O)N[C@@H](CCCCN)C(=O)N[C@@H](CCCCN)C(=O)N1CCC[C@H]1C(=O)N[C@@H](CCCNC(=N)N)C(=O)N[C@H](C(=O)N[C@H](C(=O)N1CCC[C@H]1C(=O)N[C@H](C(=O)N[C@@H](CO)C(=O)N[C@H](C(=O)N1CCC[C@H]1C(=O)N[C@@H](Cc1ccccc1)C(=O)O)[C@@H](C)CC)[C@@H](C)CC)[C@@H](C)CC)C(C)C)C(C)C)C(C)C | Helicobacter pylori | – | SS1 | – | – | MBC | 16 µg/mL (≈ 3.79 µM) |
| [O-][N+]1=C(c2ccc(Cl)cc2)C2=NCCCCN2c2ccccc21 | Parabacteroides distasonis and Bacteroides spp. | bacterial growth | – | – | – | MIC50 | 1 µg/mL (≈ 3.07 µM) |
| CN(C(=O)c1ccn2ncc(-c3ccc(C(N)=O)cc3)c2c1)c1ccc(C#N)cn1 | Cryptosporidium parvum | – | UGA1 Nluc, IFN-gamma knockout C57BL/6 mice, faeces | oral, 10 mg/kg daily, 336 h post infection, treatment days 11-17 | higher means more parasites | faecal Nluc luminescence | 2340 a.u. and 98 a.u. and 3200 a.u. and 8390 a.u. |
| CCCSC(SCCC)c1ccc(OCCNS(=O)(=O)c2ccccc2C(F)(F)F)c(OC)c1 | Tobacco mosaic virus | curative activity | plant in vivo | – | – | EC50 | 383.3 ± 0.9 µg/mL (≈ 713 µM) |
| CCOC(=O)C1(Cc2ccc(-c3ccccc3)cc2)Oc2cc(F)ccc2N(Cc2ccc(-c3ccccc3)cc2)C1=O (stereo not shown) | Echinochloa crus-galli | fresh weight, greenhouse postemergence | – | postemergence, 150 g ai/ha, 21 days | – | inhibition | 48.4 ± 1.07% |
| COc1ccc(C2=[N+]([O-])c3ccccc3N3CCCN=C23)cc1 | Parabacteroides distasonis and Bacteroides spp. | bacterial growth | – | – | – | MIC90 | 2 µg/mL (≈ 6.51 µM) |
| OB(O)c1ccc(C(F)(F)F)s1 | Staphylococcus aureus | – | USA300 wild type | 10 µM | baseline: untreated | growth relative to untreated | 78.8% and 68% and 80.8% and 75.6% and 81.4% and 67% |
| COc1ccc(Cn2c3cc(=O)n(Cc4cccc(Cl)n4)c(C)c3c(=O)n2-c2ccccn2)cc1 | human respiratory syncytial virus | – | recombinant reporter virus | concentration not given, scale 0 to 100, together with: adenosine 0.4 µM | – | normalized viral replication | 0 |
| COc1cc(C(SC(C)C)SC(C)C)ccc1OCCNS(=O)(=O)c1cccc(Br)c1 | Tobacco mosaic virus | protective activity | plant in vivo | – | – | EC50 | 200.7 ± 1.9 µg/mL (≈ 366 µM) |
| [O-][N+]1=C(Cc2ccccc2)C2=NCCCN2c2ccccc21 | Prevotella spp. | bacterial growth | – | – | – | MIC50 | 1 µg/mL (≈ 3.43 µM) |
| CCCSC(SCCC)c1ccc(OCCNS(=O)(=O)c2ccc(Br)cc2)c(Cl)c1 | Tobacco mosaic virus | protective activity | plant in vivo | – | – | EC50 | 636.1 ± 3.2 µg/mL (≈ 1150 µM) |
| CC[C@H](C)CCCCC(=O)N[C@@H](CCN)C(=O)N[C@H](C(=O)N[C@@H](CCN)C(=O)N[C@H]1CCNC(=O)[C@H]([C@@H](C)O)NC(=O)[C@H](CCN)NC(=O)[C@H](CCN)NC(=O)[C@H](CC(C)C)NC(=O)[C@@H](CC(C)C)NC(=O)[C@H](CCN)NC1=O)[C@@H](C)O | Escherichia coli | daily serial passaging | ATCC 8739 | highest sub-MIC, 45 days | baseline: initial MIC | MIC fold change | 5.26 |
| CC(C)C[C@H](NC(=O)[C@H](CC(C)C)NC(=O)[C@H](CCCCN)NC(=O)[C@H](Cc1ccccc1)NC(=O)[C@@H](NC(=O)[C@H](CCCNC(=N)N)NC(=O)[C@@H](N)CCCCN)C(C)C)C(=O)N[C@@H](CCCCN)C(=O)N[C@@H](CCCNC(=N)N)C(=O)N[C@@H](Cc1ccc(O)cc1)C(=O)N[C@@H](Cc1c[nH]c2ccccc12)C(=O)N[C@@H](CCCNC(=N)N)C(=O)N[C@@H](CCC(N)=O)C(=O)N[C@@H](CC(C)C)C(=O)N[C@@H](CCCCN)C(=O)N[C@@H](CCCCN)C(=O)N1CCC[C@H]1C(=O)N[C@H](C(=O)N[C@@H](CCCNC(=N)N)C(=O)NCCOCCOCC(=O)O)C(C)C | Staphylococcus aureus and Pseudomonas aeruginosa | ELISA | BALB/c mice, polymicrobial wound infection, wound tissue | 60 µg | baseline: vehicle | TNF-α and IL-6 levels | decreased |
| CCOC(=O)C1(Cc2cc(F)c(F)c(F)c2)Oc2cc(F)ccc2N(Cc2cc(F)c(F)c(F)c2)C1=O (stereo not shown) | Eclipta prostrata | fresh weight, greenhouse postemergence | – | postemergence, 150 g ai/ha, 21 days | – | inhibition | 61.3 ± 3.17% |
| CCCSC(SCCC)c1ccc(OCCNS(=O)(=O)c2ccc(F)cc2)c(OC)c1 | Tobacco mosaic virus | curative activity | plant in vivo | – | – | EC50 | 296 ± 3.5 µg/mL (≈ 607 µM) |
| O[C@]12C=C(c3nccc4c3[nH]c3ccccc34)[C@@H]3CCN(CCCC/C=C\CC1)C[C@@]31C[C@@H]3/C=C\CCCCN3[C@H]12 | Mycobacterium intracellulare | Alamar Blue | ATCC 23068 | 5% calf serum in broth | – | IC50 | 1.64 µg/mL (≈ 2.99 µM) |
| FC(F)(F)c1cccc(CNc2nc(NC3CCN(Cc4ccccc4)CC3)c3nc[nH]c3n2)c1 | Cryptococcus neoformans | RNA-seq, refers to: CNAG_06530 | – | 48 µg/mL, 3 h | baseline: untreated | mRNA fold change | 1.06 |
| [O-][N+]1=C(c2ccccc2)C2=NCCCN2c2ncccc21 | Prevotella spp. | bacterial growth | – | – | – | MIC90 | 0.125 µg/mL (≈ 0.449 µM) |
| CCCCSC(SCCCC)c1ccc(OCCNS(=O)(=O)c2ccc(F)cc2)c(OC)c1 | Tobacco mosaic virus | inactivation activity | plant in vivo | – | – | EC50 | 48.1 ± 2 µg/mL (≈ 93.3 µM) |
| CCOC(=O)C1(Cc2ccc(C#N)cc2)Oc2cc(F)ccc2N(Cc2ccc(C#N)cc2)C1=O (stereo not shown) | Echinochloa crus-galli | fresh weight, greenhouse postemergence | – | postemergence, 150 g ai/ha, 21 days | – | inhibition | 50.3 ± 1.88% |
| CCCSC(SCCC)c1ccc(OCCNS(=O)(=O)c2ccc(F)c(Cl)c2)c(OC)c1 | Tobacco mosaic virus | curative activity | plant in vivo | – | – | EC50 | 572.1 ± 3.2 µg/mL (≈ 1100 µM) |
| NCCCO.O=C(O)C(Cl)Cl | Eleusine indica | – | – | 15 mg/mL, 21 days, pre-emergence, greenhouse | – | herbicidal inhibition | 0% |
| C[C@H]1O[C@@H](O[C@H]2CC[C@@]3(C)[C@H](C2)C[C@@H]2O[C@]24[C@@H]3C[C@@H](O)[C@]2(C)[C@@H](C3=CC(=O)OC3)CC[C@@]24O)[C@H](O)[C@H](O)[C@@H]1O[C@@H]1O[C@H](CO)[C@@H](O)[C@H](O)[C@H]1O | Oncopeltus fasciatus | – | – | diet, concentration not given | – | time to adulthood | 23.4 days |
| COc1cc(C(SC(C)C)SC(C)C)ccc1OCCNS(=O)(=O)c1cccc(C(F)(F)F)c1 | tobacco mosaic virus | curative activity | in vivo plant | – | – | EC50 | > 2500 µg/mL |

Repeated from above:
| Structure (SMILES) | organism | test | test system | conditions | how to read | measurement | value |
| --- | --- | --- | --- | --- | --- | --- | --- |
| OB(O)c1ccc(C(F)(F)F)s1 | Staphylococcus aureus | – | USA300 wild type | 10 µM | baseline: untreated | growth relative to untreated | 78.8% and 68% and 80.8% and 75.6% and 81.4% and 67% |
| COc1ccc(Cn2c3cc(=O)n(Cc4cccc(Cl)n4)c(C)c3c(=O)n2-c2ccccn2)cc1 | human respiratory syncytial virus | – | recombinant reporter virus | concentration not given, scale 0 to 100, together with: adenosine 0.4 µM | – | normalized viral replication | 0 |
| COc1cc(C(SC(C)C)SC(C)C)ccc1OCCNS(=O)(=O)c1cccc(Br)c1 | Tobacco mosaic virus | protective activity | plant in vivo | – | – | EC50 | 200.7 ± 1.9 µg/mL (≈ 366 µM) |
| [O-][N+]1=C(Cc2ccccc2)C2=NCCCN2c2ccccc21 | Prevotella spp. | bacterial growth | – | – | – | MIC50 | 1 µg/mL (≈ 3.43 µM) |
